Results collected from several papers.
Every numbered part comes from another study and shows a few of its results, in no order.
Sequence of UniProt P51812 (whole entry, looked up): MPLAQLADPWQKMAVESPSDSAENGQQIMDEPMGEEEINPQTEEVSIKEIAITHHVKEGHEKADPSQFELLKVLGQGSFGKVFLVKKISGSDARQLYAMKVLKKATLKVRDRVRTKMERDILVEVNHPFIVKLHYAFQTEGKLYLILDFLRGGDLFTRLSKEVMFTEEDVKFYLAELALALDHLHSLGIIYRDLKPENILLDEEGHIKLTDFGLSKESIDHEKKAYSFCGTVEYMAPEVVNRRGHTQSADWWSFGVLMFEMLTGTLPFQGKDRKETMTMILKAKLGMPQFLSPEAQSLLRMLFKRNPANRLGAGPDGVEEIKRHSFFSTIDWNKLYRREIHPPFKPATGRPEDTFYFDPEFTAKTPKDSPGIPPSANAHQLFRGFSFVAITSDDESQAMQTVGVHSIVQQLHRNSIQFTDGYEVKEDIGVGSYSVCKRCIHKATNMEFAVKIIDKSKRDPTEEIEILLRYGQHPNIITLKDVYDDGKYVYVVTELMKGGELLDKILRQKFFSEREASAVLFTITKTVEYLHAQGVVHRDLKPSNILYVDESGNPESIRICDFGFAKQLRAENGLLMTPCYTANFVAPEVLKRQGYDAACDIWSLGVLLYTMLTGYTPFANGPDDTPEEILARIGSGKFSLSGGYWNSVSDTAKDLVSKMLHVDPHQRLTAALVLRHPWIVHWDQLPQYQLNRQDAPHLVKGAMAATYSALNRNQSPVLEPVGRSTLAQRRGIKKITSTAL
Sequence of UniProt P48730 (whole entry, looked up): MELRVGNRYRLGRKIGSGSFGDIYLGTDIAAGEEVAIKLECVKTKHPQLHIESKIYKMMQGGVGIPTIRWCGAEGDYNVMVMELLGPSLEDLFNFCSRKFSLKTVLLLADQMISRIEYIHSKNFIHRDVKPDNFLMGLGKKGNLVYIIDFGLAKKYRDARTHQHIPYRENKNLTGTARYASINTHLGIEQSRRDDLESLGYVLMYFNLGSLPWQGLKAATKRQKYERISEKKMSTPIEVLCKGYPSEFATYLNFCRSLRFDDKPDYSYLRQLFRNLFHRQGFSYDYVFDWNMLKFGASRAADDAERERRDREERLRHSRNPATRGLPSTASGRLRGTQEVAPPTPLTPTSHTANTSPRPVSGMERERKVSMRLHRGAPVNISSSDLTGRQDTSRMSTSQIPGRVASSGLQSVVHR
Sequence of UniProt P17948 (whole entry, looked up): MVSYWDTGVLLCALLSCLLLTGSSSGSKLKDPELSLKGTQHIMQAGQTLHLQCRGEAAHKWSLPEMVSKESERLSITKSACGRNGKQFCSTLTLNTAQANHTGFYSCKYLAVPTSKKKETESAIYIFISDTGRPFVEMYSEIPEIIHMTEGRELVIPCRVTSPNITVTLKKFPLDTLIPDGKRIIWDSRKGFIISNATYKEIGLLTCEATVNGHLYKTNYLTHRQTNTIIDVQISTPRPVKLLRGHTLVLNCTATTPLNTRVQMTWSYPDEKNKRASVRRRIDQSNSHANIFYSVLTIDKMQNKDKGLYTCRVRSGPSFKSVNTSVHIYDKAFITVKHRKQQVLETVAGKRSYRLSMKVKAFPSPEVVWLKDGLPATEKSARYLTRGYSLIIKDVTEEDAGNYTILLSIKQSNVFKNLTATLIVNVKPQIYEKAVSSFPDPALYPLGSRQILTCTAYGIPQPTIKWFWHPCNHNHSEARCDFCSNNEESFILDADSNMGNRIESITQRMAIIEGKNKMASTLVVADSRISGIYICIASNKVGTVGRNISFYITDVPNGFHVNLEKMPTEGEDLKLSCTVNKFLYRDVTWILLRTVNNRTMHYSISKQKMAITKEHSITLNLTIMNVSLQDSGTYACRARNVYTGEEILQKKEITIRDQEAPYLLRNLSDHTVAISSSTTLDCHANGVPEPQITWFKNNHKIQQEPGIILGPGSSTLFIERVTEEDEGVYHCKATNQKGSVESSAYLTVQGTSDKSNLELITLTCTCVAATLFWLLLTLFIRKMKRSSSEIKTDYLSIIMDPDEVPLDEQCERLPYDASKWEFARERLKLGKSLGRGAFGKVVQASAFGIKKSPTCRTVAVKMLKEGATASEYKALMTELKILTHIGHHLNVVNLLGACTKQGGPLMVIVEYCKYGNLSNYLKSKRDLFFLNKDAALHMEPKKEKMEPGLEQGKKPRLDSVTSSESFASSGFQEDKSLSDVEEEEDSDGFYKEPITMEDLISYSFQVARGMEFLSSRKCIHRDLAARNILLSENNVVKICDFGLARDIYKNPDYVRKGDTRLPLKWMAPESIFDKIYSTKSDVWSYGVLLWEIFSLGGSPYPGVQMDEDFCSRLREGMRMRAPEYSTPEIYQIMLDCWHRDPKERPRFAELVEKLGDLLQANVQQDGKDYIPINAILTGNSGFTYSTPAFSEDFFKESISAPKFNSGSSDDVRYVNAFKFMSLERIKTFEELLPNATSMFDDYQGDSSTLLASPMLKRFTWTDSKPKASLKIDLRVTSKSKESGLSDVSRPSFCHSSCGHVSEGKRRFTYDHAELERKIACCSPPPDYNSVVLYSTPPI
Sequence of UniProt P51617 (whole entry, looked up): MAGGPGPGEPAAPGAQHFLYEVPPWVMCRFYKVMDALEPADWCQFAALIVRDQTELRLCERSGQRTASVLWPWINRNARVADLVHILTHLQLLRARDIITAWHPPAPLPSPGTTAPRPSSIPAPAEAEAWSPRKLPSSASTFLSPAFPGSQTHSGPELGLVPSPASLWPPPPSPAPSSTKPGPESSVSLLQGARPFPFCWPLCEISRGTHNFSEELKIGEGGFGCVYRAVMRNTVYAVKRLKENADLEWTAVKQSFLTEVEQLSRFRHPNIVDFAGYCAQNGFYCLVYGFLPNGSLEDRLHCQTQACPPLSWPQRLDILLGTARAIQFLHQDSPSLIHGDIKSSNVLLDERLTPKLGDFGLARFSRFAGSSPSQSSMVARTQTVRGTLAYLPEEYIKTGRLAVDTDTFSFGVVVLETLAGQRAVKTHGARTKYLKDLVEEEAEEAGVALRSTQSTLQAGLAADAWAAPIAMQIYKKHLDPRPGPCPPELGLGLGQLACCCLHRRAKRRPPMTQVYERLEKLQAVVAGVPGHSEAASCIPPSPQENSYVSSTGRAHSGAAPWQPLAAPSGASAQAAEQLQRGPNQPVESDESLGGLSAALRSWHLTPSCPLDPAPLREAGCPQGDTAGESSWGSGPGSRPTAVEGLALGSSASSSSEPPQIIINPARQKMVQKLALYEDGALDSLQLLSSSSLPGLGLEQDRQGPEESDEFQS
Sequence of UniProt Q13237 (whole entry, looked up): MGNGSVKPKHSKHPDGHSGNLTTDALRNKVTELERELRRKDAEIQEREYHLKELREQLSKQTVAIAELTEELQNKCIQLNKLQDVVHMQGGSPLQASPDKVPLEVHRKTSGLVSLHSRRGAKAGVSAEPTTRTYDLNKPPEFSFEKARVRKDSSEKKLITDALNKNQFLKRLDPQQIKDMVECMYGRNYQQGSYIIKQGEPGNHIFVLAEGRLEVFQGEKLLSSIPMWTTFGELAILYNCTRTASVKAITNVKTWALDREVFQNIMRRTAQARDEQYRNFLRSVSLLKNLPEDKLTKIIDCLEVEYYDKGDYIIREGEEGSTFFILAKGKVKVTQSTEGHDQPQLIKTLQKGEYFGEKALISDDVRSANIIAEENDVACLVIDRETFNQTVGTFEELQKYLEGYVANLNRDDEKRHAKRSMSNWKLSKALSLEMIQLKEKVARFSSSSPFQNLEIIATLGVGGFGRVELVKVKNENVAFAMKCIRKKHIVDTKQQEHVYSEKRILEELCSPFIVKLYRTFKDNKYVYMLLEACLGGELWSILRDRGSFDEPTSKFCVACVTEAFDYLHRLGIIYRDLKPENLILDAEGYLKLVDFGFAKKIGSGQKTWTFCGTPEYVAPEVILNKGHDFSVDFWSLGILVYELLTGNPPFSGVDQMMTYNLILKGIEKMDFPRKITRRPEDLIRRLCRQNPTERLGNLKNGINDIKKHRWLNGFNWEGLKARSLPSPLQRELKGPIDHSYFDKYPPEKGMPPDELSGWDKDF
Sequence of UniProt Q96GD4 (whole entry, looked up): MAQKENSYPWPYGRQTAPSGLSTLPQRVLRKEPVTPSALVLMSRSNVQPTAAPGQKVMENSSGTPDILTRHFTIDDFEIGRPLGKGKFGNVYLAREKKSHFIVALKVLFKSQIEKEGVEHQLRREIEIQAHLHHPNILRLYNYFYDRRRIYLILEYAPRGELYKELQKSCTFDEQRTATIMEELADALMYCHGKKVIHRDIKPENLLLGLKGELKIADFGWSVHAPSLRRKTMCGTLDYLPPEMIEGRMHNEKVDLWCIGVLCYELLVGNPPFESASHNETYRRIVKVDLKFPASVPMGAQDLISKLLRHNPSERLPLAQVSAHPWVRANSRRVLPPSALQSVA
Sequence of UniProt Q15759 (whole entry, looked up): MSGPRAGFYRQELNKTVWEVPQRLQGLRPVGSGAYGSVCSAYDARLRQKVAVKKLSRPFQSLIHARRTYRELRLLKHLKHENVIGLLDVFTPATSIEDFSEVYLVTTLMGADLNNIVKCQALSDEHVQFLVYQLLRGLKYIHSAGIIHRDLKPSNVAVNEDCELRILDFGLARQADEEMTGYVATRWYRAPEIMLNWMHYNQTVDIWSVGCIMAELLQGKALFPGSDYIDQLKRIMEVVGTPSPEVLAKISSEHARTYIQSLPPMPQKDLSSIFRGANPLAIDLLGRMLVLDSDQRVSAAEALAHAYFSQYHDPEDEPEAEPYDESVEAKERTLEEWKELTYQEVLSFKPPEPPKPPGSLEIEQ
Sequence of UniProt Q14012 (whole entry, looked up): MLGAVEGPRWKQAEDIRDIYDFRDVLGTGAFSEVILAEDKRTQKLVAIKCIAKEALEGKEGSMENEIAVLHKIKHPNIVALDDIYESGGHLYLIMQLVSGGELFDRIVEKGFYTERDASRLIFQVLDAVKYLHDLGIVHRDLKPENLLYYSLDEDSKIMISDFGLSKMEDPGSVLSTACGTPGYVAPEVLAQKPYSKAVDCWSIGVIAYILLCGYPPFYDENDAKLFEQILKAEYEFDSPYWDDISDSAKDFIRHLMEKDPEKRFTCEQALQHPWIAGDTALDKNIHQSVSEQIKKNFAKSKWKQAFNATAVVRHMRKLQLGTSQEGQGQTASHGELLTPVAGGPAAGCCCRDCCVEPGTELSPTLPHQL

Block 1 — Structure (SMILES): COc1ccc(COc2ccc(Cc3cnc(N)nc3N)cc2OC)cc1; read-out: enzyme activity; mode: inhibitor; concentration: 0.5 µM; reference: control
| target | remaining activity [%] |
| --- | --- |
| Calcium/calmodulin-dependent protein kinase type 1 (CAMK1, Homo sapiens, UniProt Q14012) | 103 |
| Insulin-like growth factor 1 receptor (IGF1R, Homo sapiens, UniProt P08069) | 123 |
| Protein kinase C zeta type (PRKCZ, Homo sapiens, UniProt Q05513) | 93.4 |
| Protein kinase C theta type (PRKCQ, Homo sapiens, UniProt Q04759) | 98 |
| Serine/threonine-protein kinase SIK2 (SIK2, Homo sapiens, UniProt Q9H0K1) | 98.6 |
| Serine/threonine-protein kinase Sgk2 (SGK2, Homo sapiens, UniProt Q9HBY8) | 97.5 |
| Tyrosine-protein kinase Tec (TEC, Homo sapiens, UniProt P42680) | 114 |
| Muscle, skeletal receptor tyrosine-protein kinase (MUSK, Homo sapiens, UniProt O15146) | 102 |
| Casein kinase I isoform epsilon (CSNK1E, Homo sapiens, UniProt P49674) | 97.1 |
| Dual specificity protein kinase CLK2 (CLK2, Homo sapiens, UniProt P49760) | 94.3 |
| Dual specificity protein kinase CLK1 (CLK1, Homo sapiens, UniProt P49759) | 103 |
| Mitogen-activated protein kinase kinase kinase 20 (MAP3K20, Homo sapiens, UniProt Q9NYL2) | 97.4 |
| Serine/threonine-protein kinase PAK 1 (PAK1, Homo sapiens, UniProt Q13153) | 93.4 |
| Casein kinase I isoform delta (CSNK1D, Homo sapiens, UniProt P48730) | 98.5 |
| Serine/threonine-protein kinase PAK 6 (PAK6, Homo sapiens, UniProt Q9NQU5) | 94.9 |
| Tyrosine-protein kinase JAK1 (JAK1, Homo sapiens, UniProt P23458) | 105 |
| Calcium/calmodulin-dependent protein kinase kinase 1 (CAMKK1, Homo sapiens, UniProt Q8N5S9) | 115 |
| Vascular endothelial growth factor receptor 1 (FLT1, Homo sapiens, UniProt P17948) | 99.7 |
| Ribosomal protein S6 kinase alpha-3 (RPS6KA3, Homo sapiens, UniProt P51812) | 105 |

Block 2 — SMILES: O=c1nc(-c2ccccn2)sc2ccccc12; method: competition with immobilised ligand; concentration: 1 µM
| target | test | remaining binding |
| --- | --- | --- |
| BDNF/NT-3 growth factors receptor (NTRK2, Homo sapiens, UniProt Q16620) | cell-free assay | 96% |
| Ribosomal protein S6 kinase alpha-3, N-terminal kinase domain (RPS6KA3, Homo sapiens, UniProt P51812) | binding | 71% |
| Rho-associated protein kinase 2 (ROCK2, Homo sapiens, UniProt O75116) | binding | 94% |
| Dual specificity mitogen-activated protein kinase kinase 7 (MAP2K7, Homo sapiens, UniProt O14733) | binding | 93% |
| Aurora kinase B (AURKB, Homo sapiens, UniProt Q96GD4) | binding | 82% |
| Interleukin-1 receptor-associated kinase 1 (IRAK1, Homo sapiens, UniProt P51617) | binding | 100% |
| Ribosomal protein S6 kinase alpha-2, C-terminal kinase domain (RPS6KA2, Homo sapiens, UniProt Q15349) | binding | 100% |
| RAC-alpha serine/threonine-protein kinase (AKT1, Homo sapiens, UniProt P31749) | binding | 100% |
| Serine/threonine-protein kinase TNNI3K (TNNI3K, Homo sapiens, UniProt Q59H18) | binding | 87% |
| Serine/threonine-protein kinase PAK 2 (PAK2, Homo sapiens, UniProt Q13177) | cell-free assay | 100% |
| Ribosomal protein S6 kinase alpha-6, C-terminal kinase domain (RPS6KA6, Homo sapiens, UniProt Q9UK32) | binding | 92% |
| Hepatocyte growth factor receptor (MET, Homo sapiens, UniProt P08581) | cell-free assay | 74% |
| Cyclin-dependent kinase 4, with cyclin D3 (CDK4, Homo sapiens, UniProt P11802) | binding | 90% |
| Tyrosine-protein kinase ABL1, non-phosphorylated (ABL1, Homo sapiens, UniProt P00519, T315I) | binding | 100% |
| Serine/threonine-protein kinase TAO1 (TAOK1, Homo sapiens, UniProt Q7L7X3) | binding | 92% |
| Cyclin-dependent kinase 15 (CDK15, Homo sapiens, UniProt Q96Q40) | binding | 75% |
| Mitogen-activated protein kinase 11 (MAPK11, Homo sapiens, UniProt Q15759) | binding | 100% |
| Fibroblast growth factor receptor 4 (FGFR4, Homo sapiens, UniProt P22455) | cell-free assay | 73% |
| Tyrosine-protein kinase Blk (BLK, Homo sapiens, UniProt P51451) | binding | 88% |
| Tyrosine-protein kinase JAK3, JH1 (JAK3, Homo sapiens, UniProt P52333) | binding | 100% |
| Epidermal growth factor receptor (EGFR, Homo sapiens, UniProt P00533, L861Q) | cell-free assay | 68% |
| Serine/threonine-protein kinase 26 (STK26, Homo sapiens, UniProt Q9P289) | binding | 100% |
| cGMP-dependent protein kinase 2 (PRKG2, Homo sapiens, UniProt Q13237) | binding | 96% |
| Serine/threonine-protein kinase ULK1 (ULK1, Homo sapiens, UniProt O75385) | binding | 100% |
| Mitogen-activated protein kinase kinase kinase 14 (MAP3K14, Homo sapiens, UniProt Q99558) | binding | 100% |

Block 3 — cell line: mouse MPNST tumor cells; method: high-content nuclear imaging; item: cell number; concentration: 10 µM; time: 12 h; notes: mean of 2 replicates; reference: plate mean; direction: higher = more cells
| Compound | nuclei count [z-score] |
| --- | --- |
| C=CCn1c(=O)n([C@@H]2O[C@H](CO)[C@@H](O)[C@H]2O)c2nc(N)[nH]c(=O)c21 | -0.34 |
| CCC(CC)Nc1nc(C)c(-c2ccc(OC(F)(F)F)cc2OC)nc1OC | 0.0851 |
| O=C(Nc1cccnc1)N1CCC(Cc2cccc(Oc3ccc(C(F)(F)F)cn3)c2)CC1 | 0.327 |
| CNC(=O)c1cc(Oc2ccc(NC(=O)Nc3ccc(Cl)c(C(F)(F)F)c3)cc2)ccn1 | -0.164 |
| NC[C@H]1O[C@H](O[C@H]2[C@H](O)[C@@H](O[C@H]3O[C@H](CO)[C@@H](O)[C@H](N)[C@H]3O)[C@H](N)C[C@@H]2N)[C@H](N)C[C@@H]1O | -0.548 |
| CS(=O)(=O)Nc1ccc([N+](=O)[O-])cc1OC1CCCCC1 | 0.886 |
| O=C(NCc1ccco1)c1ccc2c(c1)N(Cc1c(F)cccc1Cl)C(=O)CS2 | 0.861 |
| CC1CCc2c(cc(Br)c(F)c2Br)N1C=O (stereo not drawn) | 1.42 |
| c1cnc(N2CCN(Cc3ccc4c(c3)OCO4)CC2)nc1 | -0.138 |
| O=C(O)CN(CCN(CC(=O)O)CC(=O)O)CCN(CC(=O)O)CC(=O)O | 1.78 |

Block 4 — method: phase 2a clinical trial
Structure (SMILES): CC(C)n1cnc(-c2ccc(F)cc2)c1-c1ncc(C(=O)Nc2ccc(N3CCN(C)CC3)cc2)[nH]1
Species: patients with idiopathic pulmonary fibrosis
| test | conditions | patients with treatment-emergent adverse events [%] |
| --- | --- | --- |
| item: metabolism and nutrition disorders (SOC) | dose not given, Grade 5, all drug arms total | 0 |
| item: C-reactive protein increased | 60 mg once daily, Grade 1 | 0 |
| item: drug-induced liver injury | 60 mg once daily, Grade 1 | 0 |
| item: drug-induced liver injury | dose not given, Grade 5, all drug arms total | 0 |
| item: interstitial lung disease | 30 mg once daily, Grade 3 | 0 |
| item: electrocardiogram high voltage | dose not given, Grade 3, all drug arms total | 0 |
| item: carbon dioxide decreased | 60 mg once daily, Grade 5 | 0 |
| item: drug-induced liver injury | 60 mg once daily, Grade 4 | 0 |
| item: left bundle branch block | dose not given, Grade 3, all drug arms | 0 |
| item: metabolism and nutrition disorders (SOC) | dose not given, Grade 4, all drug arms total | 0 |
| item: benign prostatic hyperplasia | 60 mg once daily, Grade 1, maximum intensity | 0 |
| item: benign prostatic hyperplasia | 60 mg once daily, Grade 2, maximum intensity | 0 |

Repeated from above (block 1):
| target | remaining activity [%] |
| --- | --- |
| Protein kinase C zeta type (PRKCZ, Homo sapiens, UniProt Q05513) | 93.4 |
| Protein kinase C theta type (PRKCQ, Homo sapiens, UniProt Q04759) | 98 |
| Serine/threonine-protein kinase SIK2 (SIK2, Homo sapiens, UniProt Q9H0K1) | 98.6 |
| Serine/threonine-protein kinase Sgk2 (SGK2, Homo sapiens, UniProt Q9HBY8) | 97.5 |
| Tyrosine-protein kinase Tec (TEC, Homo sapiens, UniProt P42680) | 114 |
| Muscle, skeletal receptor tyrosine-protein kinase (MUSK, Homo sapiens, UniProt O15146) | 102 |
| Casein kinase I isoform epsilon (CSNK1E, Homo sapiens, UniProt P49674) | 97.1 |
| Dual specificity protein kinase CLK2 (CLK2, Homo sapiens, UniProt P49760) | 94.3 |
| Dual specificity protein kinase CLK1 (CLK1, Homo sapiens, UniProt P49759) | 103 |
